Measured values pooled from the literature.
Every numbered part comes from another study and shows a few of its results, in no order.

Set 1
Target: RING finger protein unkempt homolog, zinc fingers 1-6, GST-SBP tag (UNK, Homo sapiens, UniProt Q9C0B0, residues 30-357)
Sequence of UniProt Q9C0B0 (30-357, looked up): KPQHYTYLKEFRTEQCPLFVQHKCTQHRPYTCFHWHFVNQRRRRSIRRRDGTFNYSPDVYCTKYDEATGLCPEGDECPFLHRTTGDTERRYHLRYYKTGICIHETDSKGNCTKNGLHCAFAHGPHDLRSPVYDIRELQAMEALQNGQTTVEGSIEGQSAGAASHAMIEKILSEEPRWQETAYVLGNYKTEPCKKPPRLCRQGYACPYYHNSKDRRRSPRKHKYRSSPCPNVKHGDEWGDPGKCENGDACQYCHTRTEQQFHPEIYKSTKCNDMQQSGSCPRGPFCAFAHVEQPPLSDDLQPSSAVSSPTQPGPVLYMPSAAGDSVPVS
Method: RNA Bind-n-Seq
Form: RNA
Medium: in vitro
Tested at: not given
Setting: RNA with constant flanks, human and mouse sites, ends assumed
Reference: input RNA pool
Reading: higher = stronger binding
All sequences stand within: GGGAGUUCUACAGUCCGACGAUC … CAACAGAGGAUUGAGCAUCA
`ACUUAACAUUGAAAAAGCAUAUGGUAAUGGUGGUAUCUCUGCAGCCUCACCGACCCAGGCACUGUCAACAGGUGCUGCCACACAUUCCUGGUCUCCAGUGCCCUCCCUGUCUCUUACAGG` has a bound/input enrichment of 0.174 ratio.
With `CUGUUCAUGGGCAAUCUGAGGAAUAAAUGUUUGCAGUGGCCCCCAAGCGAUUCUGCUUUUGAAACCAACACCACUUCCUACUUUAAUGGCACAAUGGAUUCAAAUGGGACAUUUGUUAAU` the bound/input enrichment was 0.143 ratio.
The bound/input enrichment of `UUUCUACUGCAGCAAACGAUGCUAAGAAUUAAGGAUCCUAAGAAGUCCCUGGAUUUUUAUACGAGGGUUCUUGGACUGACCCUCCUGCAGAAGCUUGACUUCCCUGCUAUGAAGUUCUCG` is reported as 0.292 ratio.
The bound/input enrichment of `ACUGACUCACCUCGCUUAUUGGCCUCCCCCUCCAGCAGGAGUAUUGACAUUUCAGCUACUAUCCCCAAGUUUACAAACACGCAGAUUACGGAACAUUACUCCACCUGUAUCAAACUGUCC` is reported as 0.313 ratio.
With `GCACCCAGGAGCGGGGAAGCGAAGUGCGAGAGACCCCGGACCCCAGCGCUGUCUCUUCCCGCCGCCCGAACCACCAUGACCCACUUCAACAAGGGCCCUUCCUAUGGGCUCUCGGCCGAA` the bound/input enrichment was 0.183 ratio.
`GAGGAGGAAGGACAGUCCAGCUCCCCAAAGAAAAAGAUCAAGUUGAAGAAGCAGAGAGAUGCGGCACGAGCUGCCGAAGGCGCUGCUGCCCAGAAUGAGUAUGAAGUCAAAGCGUCCGAG` gave a bound/input enrichment of 0.201 ratio.
`UCUGUGAAAACUUCAGUCACAACAUCAAUUUCAGAGCCUUGGACCCAAAGGAGUUUCUAUAGGUCAUCUAAUGCUUCAGAUAAAGAUAGUGAUUUACAGAAAACAUUUUUUUCGUCUUCU` has a bound/input enrichment of 0.29 ratio.
`CUGUUGCCCAAACCACAGAUGCGUGGUCUUCUGGCCAAGCGUCUGCGGGUUCAUAUUGCUGGCGCAUUCAUUGUGGCCCUGGGAGUUGCCGCUGCCUAUAAGUUUGGCGUGGCUGAGCCA` gave a bound/input enrichment of 0.199 ratio.

Set 2
Target: Centromere-binding protein 1, full length, His-tagged (CBF1, Saccharomyces cerevisiae, UniProt P17106, residues 1-351)
Sequence of UniProt P17106 (whole entry, looked up): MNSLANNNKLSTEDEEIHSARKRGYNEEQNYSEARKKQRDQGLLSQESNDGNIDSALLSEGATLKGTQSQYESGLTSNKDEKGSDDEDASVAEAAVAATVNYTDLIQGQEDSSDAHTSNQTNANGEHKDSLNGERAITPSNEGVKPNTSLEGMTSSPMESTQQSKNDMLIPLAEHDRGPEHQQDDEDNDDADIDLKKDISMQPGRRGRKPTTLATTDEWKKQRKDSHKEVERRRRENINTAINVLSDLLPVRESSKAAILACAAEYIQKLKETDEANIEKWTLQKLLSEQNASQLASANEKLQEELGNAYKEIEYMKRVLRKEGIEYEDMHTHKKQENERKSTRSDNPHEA
Method: competition protein-binding microarray
Form: double-stranded DNA, one strand shown
Medium: in vitro
Tested at: 2 µM
Setting: whole 60-bp probe, lowest competitor level
Added: Pho4 competitor, 0.05 µM
Reading: higher = stronger binding
All sequences stand within: … GTCTTGATTCGCTTGACGCTGCTG
The fluorescence intensity of `GTCTTGTCTCATTGCCCGGTGGGTGTCCCCACTTCA` is reported as 65.1 a.u.
`CGTCCTAGTGATTTTCACGTGCACTCCATGAGGAAG` has a fluorescence intensity of 1280 a.u.
For `CCTACCGCTTCTCCACACGTTTCTTAGATATGCGCG`, the fluorescence intensity was 88.6 a.u.
`CGGGGTTAAGTTTGTCTAGTGGGTGGCTTGCAGCAG` has a fluorescence intensity of 81.9 a.u.
`TAAAGGTGAGTATGGCATGTGGTGGTGGGATTAGAG` has a fluorescence intensity of 80.1 a.u.
With `CTAACGAAGGTTTGATGAGTGGGTGACAAGCCAAGT` the fluorescence intensity was 64.6 a.u.
For `CATACCCAACCTTGTCACACTACTTAAGATATTTGT`, the fluorescence intensity was 103 a.u.
`GCATTAGGTACGATGCACGGGTGCACTGTTAAAAAA` gave a fluorescence intensity of 102 a.u.
`CAGGCAAAAGCGTTACACGTGACGGTGGTATGATCG` gave a fluorescence intensity of 4600 a.u.
With `TAAAACCTCGTCTGAATCGTGATGGCCCTCAGAATC` the fluorescence intensity was 58.5 a.u.
The fluorescence intensity of `CCAGCGCATCTACTGAACCTGATCCAAAACTCCAAA` is reported as 56.5 a.u.
For `GAGTGGTAGGGAAAGCACGTGTGGATTATTTACGAT`, the fluorescence intensity was 1370 a.u.
The fluorescence intensity of `AGGGCTGAGGCAGCGCACGTGTGAGCGCCGCTGAGG` is reported as 516 a.u.
The fluorescence intensity of `GCTTCTCAACTACAGCTCGTGTTCCTCTTGCAGCAA` is reported as 91 a.u.
For `CGTCCTAGTGATTGTGGTGTGGGTGCCATGAGGAAG`, the fluorescence intensity was 93.3 a.u.
For `CATACCCAACCTTGTTGCGTGGGTGAAGATATTTGT`, the fluorescence intensity was 74.9 a.u.
`ATACTCGCTCGCGGCCACGGGTCAACCCGATTGGGA` gave a fluorescence intensity of 85.6 a.u.
The fluorescence intensity of `TATCCAAGTGCCCATCACGTTTTTTTATTTAATGTA` is reported as 778 a.u.

Set 3
Target: RNA binding protein fox-1 homolog 2, RRM domain, GST-SBP tag (RBFOX2, Homo sapiens, UniProt O43251-10, residues 100-194)
Method: RNA Bind-n-Seq
Form: RNA
Medium: in vitro
Tested at: 365 nM
Setting: natural RNA segment, single round, ends assumed
Reference: no-protein control
Reading: higher = stronger binding
All sequences stand within: GGGAGUUCUACAGUCCGACGAUC … UGGAAUUCUCGGGUGCCAA
Construct (chain): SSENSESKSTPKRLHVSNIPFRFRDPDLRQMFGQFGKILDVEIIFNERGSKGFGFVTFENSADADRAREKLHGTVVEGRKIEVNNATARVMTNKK
Under “RBNS enrichment (R)”, `GGUUAUAUGUAUGCACCACAUGUGCACACACGGGUGUUGGUGCAACUCACCAGCAGGUGUGCAGUAGGCAAGCUUGAAGGUGGCCCAUGCUUCUCUGUUGUCACACAACA` is recorded as 0.434.
`UAAUUGUAGAGAUUUGAACCCGAUCAAAGAAAUUUUGAGUUCUCUCAAAUACCAUAAAAGUGUUUGCUACAAUAAAUAAAAUUCUUGUGACUUUACUACCAAGUCAUCUC` — result for “RBNS enrichment (R)”: 0.471.
`AACUGAAGAGAGUGGAGAGAAUAAAGAAGUGAACUUUCAUUCAUGUCUGCUACUUUGACCUCAUAAAGAAAUCUGCAACACAGAUGAAACCAGUCUGUGUGGCCAAGCUG`: “RBNS enrichment (R)” 0.316.
For `GACCAGGAGUUUGGGGAGCUUCAGGACAUUGCUGUGCUUUGGGGAUUCCCUCCACAUGCUGCACGCGCAUCUCGCCCCCAGGGGCACUGCCUGGAAGAUUCAGGAGCCUG`, “RBNS enrichment (R)” read 1.17.
Under “RBNS enrichment (R)”, `ACCCAGCUGGAUACUCCCAAAAUGUCACAUCCCAUCCAACCUCAGAUCUGAUGCAGUCAUCUGUGUCCCCCAACCAAAGCCCAUUUGGGUCUGAGGGUUCCAGCGUAAAU` is recorded as 0.567.
Under “RBNS enrichment (R)”, `CUGGGUCUGUCCUGACCUCUAGAGGUGAGCUUGCUGCUUGAGGUCUCCCAGCUCCUGACUGUGGCAGCUGUGGUAGUGGCAGUACCAGAAUUAGCCGCUUCUUUUCCUCC` is recorded as 0.377.
`CUCUGUCCAGCCACAAGUUUGAGCAGAGGAUGUGGGGACCUCCCACAGGACACUGCUCCAACCCAAAUCAAUGUCCUCUCUAGCUGUGCAUCCCAAACCCACCUCUUGUC` — result for “RBNS enrichment (R)”: 0.452.
`UCACUGGCCCUACAACUGCCUUAGAGGAGUCAGCUGUCCAGUUUUAGAUCCCAGGAGUCACAGCAGAGCCUUGCAGUCAUUUCACAUGCGCAGACUCUGGAGAGAGCAAA`: “RBNS enrichment (R)” 0.297.

Set 4
Target: Histone acetyltransferase KAT6A, both winged helices, GST fusion (KAT6A, Homo sapiens, UniProt Q92794, residues 1-181)
Method: protein binding microarray
Form: double-stranded DNA, one strand shown
Medium: in vitro
Tested at: not given
Setting: 8-mer, flanks averaged, mean of 2 arrays, mostly near background
Reference: not given
Reading: higher = stronger binding
Construct (chain): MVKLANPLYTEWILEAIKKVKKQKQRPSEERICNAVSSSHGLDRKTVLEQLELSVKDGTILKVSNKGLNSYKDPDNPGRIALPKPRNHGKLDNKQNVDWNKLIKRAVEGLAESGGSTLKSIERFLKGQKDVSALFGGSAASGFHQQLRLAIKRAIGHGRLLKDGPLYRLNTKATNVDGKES
`CAATAGCG` gave an E-score of 0.146.
The E-score of `AATAAGCT` is reported as -0.0277.
`AAGCACCC` has an E-score of -0.0662.
`AACCGGCT` has an E-score of 0.171.
With `CCATTGTC` the E-score was -0.0929.
With `AGTCGCAT` the E-score was 0.123.
The E-score of `AACCCTGG` is reported as -0.144.
`AGCCGGTA` has an E-score of 0.187.
The E-score of `CACGCAGG` is reported as -0.0073.
`CTCAATCA` has an E-score of -0.0706.
`GGCCCCCC` gave an E-score of -0.0639.
With `CTTCTGTA` the E-score was -0.1.
With `GCAGCACA` the E-score was 0.00266.
For `AGCCAATG`, the E-score was -0.163.
For `ATCTTCTC`, the E-score was -0.0298.
For `ACCGCTCG`, the E-score was 0.225.

Excerpt of the above (set 4):
`CAATAGCG` gave an E-score of 0.146.
The E-score of `AATAAGCT` is reported as -0.0277.
`AAGCACCC` has an E-score of -0.0662.
`AACCGGCT` has an E-score of 0.171.
With `CCATTGTC` the E-score was -0.0929.
